# Experimental data of several laboratories.
# Compare with care: the assays were run in different laboratories. Values joined by “and” are separate records of one study, mostly repeats; a detail may differ. ± gives the spread as reported.
# FGFR1: Fibroblast growth factor receptor 1 (FGFR1, Homo sapiens, UniProt P11362)
# UniProt P11362, sequence (whole entry, looked up): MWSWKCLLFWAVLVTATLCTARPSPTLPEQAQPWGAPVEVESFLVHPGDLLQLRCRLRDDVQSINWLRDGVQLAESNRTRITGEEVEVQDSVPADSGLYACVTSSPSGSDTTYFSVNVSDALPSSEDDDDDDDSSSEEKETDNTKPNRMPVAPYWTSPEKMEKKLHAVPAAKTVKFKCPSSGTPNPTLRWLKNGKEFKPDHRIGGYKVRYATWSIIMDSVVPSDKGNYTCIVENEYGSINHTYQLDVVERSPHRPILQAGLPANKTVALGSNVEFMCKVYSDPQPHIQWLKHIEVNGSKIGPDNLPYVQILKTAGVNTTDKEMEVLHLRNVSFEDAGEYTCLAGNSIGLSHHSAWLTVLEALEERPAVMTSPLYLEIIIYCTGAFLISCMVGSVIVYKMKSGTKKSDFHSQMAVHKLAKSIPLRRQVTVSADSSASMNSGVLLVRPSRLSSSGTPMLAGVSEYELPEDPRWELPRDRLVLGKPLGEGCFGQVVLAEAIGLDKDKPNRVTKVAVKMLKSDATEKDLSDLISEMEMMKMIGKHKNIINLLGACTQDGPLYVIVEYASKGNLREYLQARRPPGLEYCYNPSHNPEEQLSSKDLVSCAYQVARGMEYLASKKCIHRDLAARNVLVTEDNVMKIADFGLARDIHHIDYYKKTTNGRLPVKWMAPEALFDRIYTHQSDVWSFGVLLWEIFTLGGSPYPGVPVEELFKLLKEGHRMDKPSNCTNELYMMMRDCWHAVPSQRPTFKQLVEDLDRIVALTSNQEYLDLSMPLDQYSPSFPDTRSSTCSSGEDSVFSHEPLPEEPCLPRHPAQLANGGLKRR
# MEP cytidylyltransferase IspD: MEP cytidylyltransferase IspD (Plasmodium falciparum, UniProt Q8I273)
# P4HB: Protein disulfide-isomerase (P4HB, Homo sapiens, UniProt P07237)
# UniProt P07237, sequence (whole entry, looked up): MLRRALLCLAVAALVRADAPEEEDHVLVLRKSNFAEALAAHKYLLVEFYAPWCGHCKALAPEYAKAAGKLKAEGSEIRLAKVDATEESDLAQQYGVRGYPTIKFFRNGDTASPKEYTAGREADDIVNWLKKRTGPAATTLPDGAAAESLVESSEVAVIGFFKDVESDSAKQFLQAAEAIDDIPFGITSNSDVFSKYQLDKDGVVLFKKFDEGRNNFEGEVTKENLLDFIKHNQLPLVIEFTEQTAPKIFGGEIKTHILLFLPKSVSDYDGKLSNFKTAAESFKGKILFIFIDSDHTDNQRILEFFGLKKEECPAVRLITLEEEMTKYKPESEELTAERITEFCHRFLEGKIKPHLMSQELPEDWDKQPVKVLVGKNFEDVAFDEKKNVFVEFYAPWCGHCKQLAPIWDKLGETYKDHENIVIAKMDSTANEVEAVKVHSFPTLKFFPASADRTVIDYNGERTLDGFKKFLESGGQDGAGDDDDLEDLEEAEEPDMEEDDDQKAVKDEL
# UniProt Q99496, sequence (whole entry, looked up): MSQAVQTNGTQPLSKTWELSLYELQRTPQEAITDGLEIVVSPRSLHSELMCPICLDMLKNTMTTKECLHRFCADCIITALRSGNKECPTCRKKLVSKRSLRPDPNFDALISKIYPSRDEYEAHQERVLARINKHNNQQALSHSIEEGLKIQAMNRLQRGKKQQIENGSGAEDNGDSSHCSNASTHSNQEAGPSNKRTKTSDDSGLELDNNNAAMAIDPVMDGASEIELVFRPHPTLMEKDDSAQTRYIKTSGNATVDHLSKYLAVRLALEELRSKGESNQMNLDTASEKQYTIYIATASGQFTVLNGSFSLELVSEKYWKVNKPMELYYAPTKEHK
# UniProt Q96JM7, sequence (whole entry, looked up): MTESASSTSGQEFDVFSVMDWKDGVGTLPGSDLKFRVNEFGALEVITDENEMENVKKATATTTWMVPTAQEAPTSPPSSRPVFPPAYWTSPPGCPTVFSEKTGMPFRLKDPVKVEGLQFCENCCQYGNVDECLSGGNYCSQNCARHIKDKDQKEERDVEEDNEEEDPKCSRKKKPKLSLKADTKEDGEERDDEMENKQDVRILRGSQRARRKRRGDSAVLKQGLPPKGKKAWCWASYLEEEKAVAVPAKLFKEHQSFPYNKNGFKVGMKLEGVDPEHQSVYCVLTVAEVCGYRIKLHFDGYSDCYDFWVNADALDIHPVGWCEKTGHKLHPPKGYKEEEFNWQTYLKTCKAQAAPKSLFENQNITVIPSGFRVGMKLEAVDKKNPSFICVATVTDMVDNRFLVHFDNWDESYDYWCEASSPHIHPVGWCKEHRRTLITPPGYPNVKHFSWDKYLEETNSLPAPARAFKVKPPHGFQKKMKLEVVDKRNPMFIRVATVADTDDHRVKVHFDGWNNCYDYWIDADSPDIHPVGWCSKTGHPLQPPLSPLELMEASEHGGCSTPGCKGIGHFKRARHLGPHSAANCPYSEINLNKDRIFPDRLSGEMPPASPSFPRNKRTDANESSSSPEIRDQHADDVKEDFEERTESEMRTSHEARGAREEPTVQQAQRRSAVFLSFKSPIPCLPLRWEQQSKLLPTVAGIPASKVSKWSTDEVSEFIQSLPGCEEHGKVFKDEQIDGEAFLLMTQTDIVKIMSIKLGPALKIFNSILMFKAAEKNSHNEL
# UniProt O35433, sequence (whole entry, looked up): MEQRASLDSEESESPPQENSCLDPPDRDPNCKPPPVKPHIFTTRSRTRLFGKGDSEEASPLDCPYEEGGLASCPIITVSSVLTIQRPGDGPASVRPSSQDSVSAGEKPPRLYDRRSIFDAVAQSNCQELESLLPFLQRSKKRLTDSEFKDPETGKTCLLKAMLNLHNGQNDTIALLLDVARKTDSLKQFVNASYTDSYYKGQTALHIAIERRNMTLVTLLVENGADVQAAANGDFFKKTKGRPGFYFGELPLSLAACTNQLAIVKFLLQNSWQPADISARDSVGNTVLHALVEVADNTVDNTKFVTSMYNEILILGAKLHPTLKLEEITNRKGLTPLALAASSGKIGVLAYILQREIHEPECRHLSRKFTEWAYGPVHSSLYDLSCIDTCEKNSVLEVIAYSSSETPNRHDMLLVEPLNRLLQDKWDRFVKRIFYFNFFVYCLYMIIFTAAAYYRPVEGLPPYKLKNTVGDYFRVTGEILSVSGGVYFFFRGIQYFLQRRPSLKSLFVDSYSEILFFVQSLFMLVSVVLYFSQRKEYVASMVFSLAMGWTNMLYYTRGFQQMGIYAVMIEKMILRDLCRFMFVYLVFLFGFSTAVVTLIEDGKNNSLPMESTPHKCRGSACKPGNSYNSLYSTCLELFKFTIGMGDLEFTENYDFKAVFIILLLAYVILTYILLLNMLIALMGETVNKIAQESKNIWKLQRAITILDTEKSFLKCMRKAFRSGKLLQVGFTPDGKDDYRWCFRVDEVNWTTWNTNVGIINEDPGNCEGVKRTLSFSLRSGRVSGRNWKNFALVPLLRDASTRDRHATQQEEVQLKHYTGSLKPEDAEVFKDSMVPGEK
# UniProt Q9NNX6, sequence (whole entry, looked up): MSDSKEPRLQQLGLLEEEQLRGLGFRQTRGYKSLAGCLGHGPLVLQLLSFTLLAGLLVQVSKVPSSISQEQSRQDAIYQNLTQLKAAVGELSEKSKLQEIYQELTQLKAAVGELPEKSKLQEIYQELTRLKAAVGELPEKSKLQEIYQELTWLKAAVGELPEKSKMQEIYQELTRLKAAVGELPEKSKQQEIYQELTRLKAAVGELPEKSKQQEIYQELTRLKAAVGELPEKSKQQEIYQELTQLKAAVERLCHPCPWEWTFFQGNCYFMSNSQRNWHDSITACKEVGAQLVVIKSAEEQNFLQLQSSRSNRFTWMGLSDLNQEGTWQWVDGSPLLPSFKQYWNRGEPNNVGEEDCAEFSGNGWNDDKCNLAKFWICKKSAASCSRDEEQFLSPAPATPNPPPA
# UniProt Q8VYV7, sequence (whole entry, looked up): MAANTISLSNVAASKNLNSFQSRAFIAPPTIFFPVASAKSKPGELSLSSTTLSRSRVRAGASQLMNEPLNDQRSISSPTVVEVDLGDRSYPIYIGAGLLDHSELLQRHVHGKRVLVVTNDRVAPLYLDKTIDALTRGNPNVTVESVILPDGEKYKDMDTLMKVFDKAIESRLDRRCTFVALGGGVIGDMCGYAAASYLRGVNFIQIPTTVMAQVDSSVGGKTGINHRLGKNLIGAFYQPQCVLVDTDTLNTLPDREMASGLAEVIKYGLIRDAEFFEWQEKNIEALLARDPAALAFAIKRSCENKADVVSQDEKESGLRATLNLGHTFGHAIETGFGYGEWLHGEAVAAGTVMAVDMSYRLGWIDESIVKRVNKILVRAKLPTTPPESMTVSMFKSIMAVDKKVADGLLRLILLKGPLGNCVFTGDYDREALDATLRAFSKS
# UniProt P48775, sequence (whole entry, looked up): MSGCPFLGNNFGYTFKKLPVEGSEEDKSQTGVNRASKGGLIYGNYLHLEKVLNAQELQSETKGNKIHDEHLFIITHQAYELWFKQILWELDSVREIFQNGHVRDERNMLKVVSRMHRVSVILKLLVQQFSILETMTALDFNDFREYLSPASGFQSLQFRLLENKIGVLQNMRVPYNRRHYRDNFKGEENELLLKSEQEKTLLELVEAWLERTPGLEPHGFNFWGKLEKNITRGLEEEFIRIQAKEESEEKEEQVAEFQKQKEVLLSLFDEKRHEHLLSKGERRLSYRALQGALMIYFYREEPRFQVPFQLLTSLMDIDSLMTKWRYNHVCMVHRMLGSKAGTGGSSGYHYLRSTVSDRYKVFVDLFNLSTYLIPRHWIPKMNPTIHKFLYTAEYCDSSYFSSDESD
# UniProt Q9UNW8, sequence (whole entry, looked up): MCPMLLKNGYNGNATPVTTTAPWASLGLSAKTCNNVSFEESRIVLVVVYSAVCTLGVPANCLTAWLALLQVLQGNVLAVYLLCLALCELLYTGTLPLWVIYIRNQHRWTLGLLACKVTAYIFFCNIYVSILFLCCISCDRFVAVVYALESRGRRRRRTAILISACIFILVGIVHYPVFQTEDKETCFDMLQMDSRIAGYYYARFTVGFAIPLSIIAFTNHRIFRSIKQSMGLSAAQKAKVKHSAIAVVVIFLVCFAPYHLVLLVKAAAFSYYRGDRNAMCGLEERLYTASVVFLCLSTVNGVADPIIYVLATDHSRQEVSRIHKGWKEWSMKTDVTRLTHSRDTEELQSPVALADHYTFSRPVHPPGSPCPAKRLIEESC
SMILES,target,assay,test system,setting,IC50
O=C(NO)c1ccc(CC(=O)N(CCO)c2ccccc2)cc1,HDAC (Lucilia cuprina egg nuclear extract),"enzyme activity, inhibitor, fluorometric",,,17 µM
COc1cc2nccc(Oc3ccc(NC(=S)NCCCO)c(Cl)c3)c2cc1C(N)=O,FGFR1,,,,1.22 µM
CCC(CC)c1nc(-c2ccc(O)cc2O)cs1,"Semaphorin-3C, with neuropilin-1 (SEMA3C, Homo sapiens, UniProt Q99985)","SEMA3C binding, inhibitor, displacement",,together with: SEMA3C-AP,11.7 µM
Cc1cc2c(NC(=O)N[C@@H]3CC(C)(C)Oc4cc(C(F)(F)F)ccc43)c(C)ccc2cn1,"Transient receptor potential cation channel subfamily V member 1 (Trpv1, Rattus norvegicus, UniProt O35433)","acid-evoked calcium influx, antagonist","HEK293, rat",pH 5,0.0727 ± 0.008 µM
Cc1noc(NS(=O)(=O)c2ccc(NC(=O)c3cc(-c4ccc5ccccc5c4)nc4ccccc34)cc2)c1C,"Peptidyl-prolyl cis-trans isomerase A (PPIA, Homo sapiens, UniProt P62937)","enzyme activity, inhibitor",,,2.84 µM
Cc1ccc(CNC(=O)[C@@H](NC(=O)[C@H](CCc2ccccc2)NC(=O)[C@@H](NC(=O)c2cnc(C)cn2)C(C)(C)C)C(C)C)cc1,"20S proteasome (Plasmodium falciparum, UniProt A0A5K1K7U1+Q8IJT1)","β5 activity, inhibitor",,"together with: Suc-LLVY-AMC, PA28α-activated",0.0472 µM
N#CC(c1ccccc1)(c1ccccc1)c1ccccc1Cl,"Gap junction alpha-8 protein (Gja8, Mus musculus, UniProt P28236)","gap junction current, inhibitor, dual whole-cell voltage clamp",transfected mouse N2a cell pairs,,4 µM
CCN[C@@H](C)C(=O)N[C@H](C(=O)N1CCC[C@H]1C(=O)N[C@@H](Cc1ccccc1)C(N)=O)C(C)C,"E3 ubiquitin-protein ligase XIAP, BIR3 (XIAP, Homo sapiens, UniProt P98170)",ligand displacement,,,4 µM
COc1cc2nccc(Oc3cc(F)c(NC(=S)NC4CC4)c(F)c3)c2cc1C(N)=O,FGFR1,,,,0.541 µM
COc1ccccc1-c1ccncc1C(=O)Nc1nnc(OCc2ccc(Cl)cc2)s1,"DNA polymerase theta, helicase domain (POLQ, Homo sapiens, UniProt O75417)","helicase ATPase activity, inhibitor, ADP-Glo",,"60 min, together with: ssDNA, 100 µM ATP",0.006 µM
CC(C)OP(=O)(C[C@H]1C[C@@](O)(C(=O)O)C[C@@H](O)[C@@H]1O)OC(C)C,"3-dehydroquinate synthase, chloroplastic (DHQS, Arabidopsis thaliana, UniProt Q8VYV7)","enzyme activity, inhibitor, malachite green phosphate release",,29 °C,930 µM
N[C@@H](CCC(=O)N[C@@H](CS[Se]Cc1ccc(-c2cccc(C(O)c3ccc(Cl)c(Cl)c3)c2)cc1)C(=O)NCC(=O)O)C(=O)O (stereo partly drawn),"Dual specificity protein phosphatase 10 (Homo sapiens, UniProt Q9Y6W6)","enzyme activity, inhibitor",,"together with: pNPP, GSH 1 mM",> 200 µM
O=C(O)/C=C\c1cc2ccoc2cc1O[C@@H]1O[C@H](CO)[C@@H](O)[C@H](O)[C@H]1O,"Solute carrier family 22 member 12 (SLC22A12, Homo sapiens, UniProt Q96S37)",,,,53 µM
NC(=O)Nc1cc(-c2ccc(CN3CCOCC3)cc2)sc1C(N)=O,"Adenine DNA glycosylase (Mutyh, Mus musculus, UniProt Q99P21)","base excision activity, fluorogenic probe",,,10.2 µM
Cc1ccc([C@H]2N[C@H](C(=O)O)Cc3c2[nH]c2ccccc32)c(Cl)c1,MEP cytidylyltransferase IspD,"enzyme activity, inhibitor, fluorimetric pyrophosphate",,60 nM enzyme,0.082 ± 0.01 µM
CCc1nc2cc(C)c(Oc3ccc(OC(F)(F)F)cc3)cc2c(O)c1C,"cytochrome b (Plutella xylostella, UniProt A0A0U1XI17)","succinate-cytochrome c oxidoreductase activity, inhibitor","Plutella xylostella, mitochondria","4 min preincubation, 30 °C",0.018 µM
Cc1ccc(-c2oc3ccccc3c(=O)c2OCc2ccccc2)cc1,β-glucosidase,"enzyme activity, inhibitor",,,0.28 ± 0.05 µM
CN(C)c1ccc2c(-c3cc(C(=O)N4CCN(CCCOc5ccc6nccc(C(=O)NCC(=O)N7CC(F)(F)C[C@H]7C#N)c6c5)CC4)ccc3C(=O)[O-])c3ccc(=[N+](C)C)cc-3oc2c1,"Prolyl endopeptidase FAP (Fap, Mus musculus, UniProt P97321)","enzyme activity, inhibitor, fluorescence",,,0.00107 µM
O=C1NC2=C(C(=O)N(c3ccc(Cl)cc3)C2)C(c2ccc(O)cc2)N1 (stereo not drawn),"Intestinal-type alkaline phosphatase (ALPI, Bos taurus, UniProt P19111)","enzyme activity, inhibitor, absorbance",,pH 9.5,6.56 µM
O=C(NCCCN1CCC(Cc2ccccc2)CC1)c1ccc2ccccc2n1,"Sodium-dependent serotonin transporter (SLC6A4, Homo sapiens, UniProt P31645)",transporter uptake,,,0.03 to 50 µM
COc1cc2nccc(Oc3ccc(NC(=S)NCCc4ccccc4)c(Cl)c3)c2cc1C(N)=O,FGFR1,,,,3.38 µM
CC(=O)N[C@H](C)C(=O)N[C@@H](CC(N)=O)C(=O)N[C@@H](Cc1c[nH]c2ccccc12)C(=O)N[C@@H](CC(N)=O)C(=O)NCC(=O)N[C@@H](Cc1ccccc1)C(=O)NCC(=O)N[C@H](Cc1c[nH]c2ccccc12)C(=O)N[C@@H](CCCNC(=N)N)C(=O)N[C@@H](Cc1ccccc1)C(N)=O,"KiSS-1 receptor (KISS1R, Homo sapiens, UniProt Q969F8)","inositol phosphate, antagonist",,,< 0.01 µM
COc1cc2nccc(Oc3ccc(NC(=S)NC4CCC(F)(F)CC4)c(Cl)c3)c2cc1C(N)=O,FGFR1,,,,7.62 µM
CC(c1ccccc1)n1c(S(=O)(=O)O)nc2ccccc21 (stereo not drawn),"Tryptophan 2,3-dioxygenase (TDO2, Homo sapiens, UniProt P48775)",inhibitor,,together with: L-tryptophan 400 µM,204 µM
CC[C@H](C)[C@H](NC(C)=O)C(=O)N[C@H](CC(=O)N[C@H](C(=O)N[C@@H](C)C(=O)N[C@@H](CCC(N)=O)C(=O)N[C@@H](CCC(=O)O)CC(=O)N[C@@H](CC(C)C)C(=O)N[C@@H](CCCNC(=N)N)C(=O)N[C@@H](CCCNC(=N)N)C(=O)N[C@H](CC(=O)NCC(=O)N[C@@H](CC(=O)O)C(=O)N[C@@H](CCC(=O)O)C(=O)N[C@H](CC(=O)N[C@@H](CC(N)=O)C(=O)N[C@@H](C)C(=O)N[C@@H](Cc1ccc(O)cc1)C(=O)N[C@H](CC(N)=O)Cc1ccc(O)cc1)Cc1ccccc1)[C@@H](C)CC)[C@@H](C)CC)Cc1c[nH]c2ccccc12,"Bcl-2-like protein 2 (BCL2L2, Homo sapiens, UniProt Q92843)",competition SPR,,"pH 7.4, together with: BimBH3 peptide",0.029 ± 0.002 µM
CCCCn1c(-c2ccc3nn(CCC)c(Cc4ccc(-c5ccccc5-c5nn[nH]n5)cc4)c3c2)nc2ccccc21,"Probable G-protein coupled receptor 132 (GPR132, Homo sapiens, UniProt Q9UNW8)","β-arrestin recruitment, antagonist",,,0.0158 µM
O=C(Nc1ccc(Cl)c(Cl)c1)Nc1ccc(Cl)c(NCc2cccnc2)c1,"Epithelial discoidin domain-containing receptor 1 (DDR1, Homo sapiens, UniProt Q08345)","enzyme activity, inhibitor, mobility shift",,,1.11 µM
COC(=O)[C@H]1C[C@H](OCCCl)[C@@H](O[C@H]2O[C@H](CO)[C@@H](O)[C@H](O)[C@@H]2n2cc(CN)nn2)C[C@@H]1C(=O)OC,"CD209 antigen (CD209, Homo sapiens, UniProt Q9NNX6)","cell-free assay, SPR",,,108 µM
Clc1ccc(CCn2cc(-c3ccc(N4CCNCC4)cc3)nn2)cc1,"Endothiapepsin (EAPA, Cryphonectria parasitica, UniProt P11838)","enzyme activity, inhibitor, fluorescence",,,121 µM
COC(=O)c1ccc(C[S+]([O-])CC(=O)C23CC4CC(CC(C4)C2)C3)o1 (stereo not drawn),"11-beta-hydroxysteroid dehydrogenase 1 (HSD11B1, Homo sapiens, UniProt P28845)","enzyme activity in cells, inhibitor",,,0.102 µM
CC(C)NCCCNC(=O)c1cccc(Br)c1,"Lethal(3)malignant brain tumor-like protein 3 (Homo sapiens, UniProt Q96JM7)","methyl-lysine reader binding, inhibitor, AlphaScreen",,,> 100 µM
CC(C)c1c(-c2cccc3[nH]ccc23)[nH]c(C(=O)O)c1-c1c(Cl)ccc2[nH]ccc12,"E3 ubiquitin-protein ligase RING2 (RNF2, Homo sapiens, UniProt Q99496)",NanoBiT luminescence,HEK-293T,24 h,~6 µM and 6 µM
CCN(CC)CC#CC[C@H](N)C(=O)O,collagenase,"gelatin hydrolysis, inhibitor",,,750 µM
CC1=C(C2=C(C)C(=O)c3c(cc(O)c(O)c3Cc3ccccc3)C2=O)C(=O)c2cc(O)c(O)c(Cc3ccccc3)c2C1=O (racemic),"Bcl-2-like protein 1, transmembrane domain deleted (BCL2L1, Homo sapiens, UniProt Q07817)","binding, fluorescence polarization",,together with: FITC-Bim BH3 peptide,0.054 ± 0.004 µM
COC(=O)c1ccc(/C=C/C(=O)c2ccc(O)c(OC)c2)cc1,P4HB,"enzyme activity, inhibitor",,,0.83 µM
O=C(O)[C@@H]1Cc2c([nH]c3ccccc23)[C@@H](c2ccc(Cl)cc2Br)N1,MEP cytidylyltransferase IspD,"enzyme activity, inhibitor, fluorimetric pyrophosphate",,60 nM enzyme,0.031 ± 0.004 µM
COc1cccc(-c2nnc3ccc(N4CCN(C(=O)c5ccc(Br)o5)CC4)nn23)c1,"Muscarinic acetylcholine receptor M1 (Chrm1, Rattus norvegicus, UniProt P08482)","calcium mobilization, antagonist",CHO expressing rat M1,,3.59 µM
c1ccc(-c2cc3ccccc3o/c2=N\c2cccc3ccccc23)cc1,"Prostaglandin G/H synthase 2 (PTGS2, Homo sapiens, UniProt P35354)","enzyme activity, inhibitor",,,0.0083 µM
CCCCCc1ccc(S(=O)(=O)N2CC2C(=O)N(C)C)cc1 (stereo not drawn),P4HB,"insulin reduction, inhibitor, turbidity",,,0.08 to 0.085 µM

# Excerpt of the above:
SMILES,target,assay,test system,setting,IC50
CCN(CC)CC#CC[C@H](N)C(=O)O,collagenase,"gelatin hydrolysis, inhibitor",,,750 µM
CC1=C(C2=C(C)C(=O)c3c(cc(O)c(O)c3Cc3ccccc3)C2=O)C(=O)c2cc(O)c(O)c(Cc3ccccc3)c2C1=O (racemic),"Bcl-2-like protein 1, transmembrane domain deleted (BCL2L1, Homo sapiens, UniProt Q07817)","binding, fluorescence polarization",,together with: FITC-Bim BH3 peptide,0.054 ± 0.004 µM
COC(=O)c1ccc(/C=C/C(=O)c2ccc(O)c(OC)c2)cc1,P4HB,"enzyme activity, inhibitor",,,0.83 µM
O=C(O)[C@@H]1Cc2c([nH]c3ccccc23)[C@@H](c2ccc(Cl)cc2Br)N1,MEP cytidylyltransferase IspD,"enzyme activity, inhibitor, fluorimetric pyrophosphate",,60 nM enzyme,0.031 ± 0.004 µM
COc1cccc(-c2nnc3ccc(N4CCN(C(=O)c5ccc(Br)o5)CC4)nn23)c1,"Muscarinic acetylcholine receptor M1 (Chrm1, Rattus norvegicus, UniProt P08482)","calcium mobilization, antagonist",CHO expressing rat M1,,3.59 µM
c1ccc(-c2cc3ccccc3o/c2=N\c2cccc3ccccc23)cc1,"Prostaglandin G/H synthase 2 (PTGS2, Homo sapiens, UniProt P35354)","enzyme activity, inhibitor",,,0.0083 µM
